{"data": "Experimental data collected from several papers", "C3AR1": "C3a anaphylatoxin chemotactic receptor (C3AR1, Homo sapiens, UniProt Q16581)", "ADORA1": "Adenosine receptor A1 (ADORA1, Homo sapiens, UniProt P30542)", "ESR1": "Estrogen receptor (ESR1, Homo sapiens, UniProt P03372)", "note": "Protocols differ between the studies behind these lines. Numbers after ± are the reported error.", "UniProt P03372, sequence (whole entry, looked up)": "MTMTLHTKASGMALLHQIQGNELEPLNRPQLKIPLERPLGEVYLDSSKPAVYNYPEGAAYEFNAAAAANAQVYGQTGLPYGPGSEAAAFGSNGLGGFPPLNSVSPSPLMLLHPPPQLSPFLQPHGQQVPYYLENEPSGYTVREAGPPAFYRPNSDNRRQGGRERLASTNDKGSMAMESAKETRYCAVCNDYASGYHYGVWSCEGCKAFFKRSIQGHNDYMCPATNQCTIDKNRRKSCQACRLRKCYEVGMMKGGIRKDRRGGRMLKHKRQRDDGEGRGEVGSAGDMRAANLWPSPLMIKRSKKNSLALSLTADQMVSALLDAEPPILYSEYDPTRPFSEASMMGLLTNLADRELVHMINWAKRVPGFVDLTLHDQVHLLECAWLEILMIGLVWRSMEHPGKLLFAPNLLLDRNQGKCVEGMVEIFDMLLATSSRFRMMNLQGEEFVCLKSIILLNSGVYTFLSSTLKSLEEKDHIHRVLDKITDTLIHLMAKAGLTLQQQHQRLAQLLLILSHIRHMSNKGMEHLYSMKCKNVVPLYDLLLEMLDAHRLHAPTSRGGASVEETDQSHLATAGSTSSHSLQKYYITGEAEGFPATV", "UniProt P47870, sequence (whole entry, looked up)": "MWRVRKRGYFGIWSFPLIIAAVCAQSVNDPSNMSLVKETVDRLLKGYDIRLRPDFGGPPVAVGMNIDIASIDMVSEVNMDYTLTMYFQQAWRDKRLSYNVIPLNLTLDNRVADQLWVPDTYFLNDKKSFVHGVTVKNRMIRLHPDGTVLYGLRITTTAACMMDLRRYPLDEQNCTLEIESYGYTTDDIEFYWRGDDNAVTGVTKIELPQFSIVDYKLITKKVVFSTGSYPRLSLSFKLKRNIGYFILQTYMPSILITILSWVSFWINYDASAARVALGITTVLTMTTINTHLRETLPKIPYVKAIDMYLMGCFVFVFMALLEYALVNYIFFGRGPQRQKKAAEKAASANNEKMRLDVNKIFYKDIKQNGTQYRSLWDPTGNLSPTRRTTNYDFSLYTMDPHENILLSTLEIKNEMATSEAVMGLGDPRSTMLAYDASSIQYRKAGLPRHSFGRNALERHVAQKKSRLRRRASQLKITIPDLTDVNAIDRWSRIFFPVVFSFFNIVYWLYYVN", "UniProt Q16581, sequence (whole entry, looked up)": "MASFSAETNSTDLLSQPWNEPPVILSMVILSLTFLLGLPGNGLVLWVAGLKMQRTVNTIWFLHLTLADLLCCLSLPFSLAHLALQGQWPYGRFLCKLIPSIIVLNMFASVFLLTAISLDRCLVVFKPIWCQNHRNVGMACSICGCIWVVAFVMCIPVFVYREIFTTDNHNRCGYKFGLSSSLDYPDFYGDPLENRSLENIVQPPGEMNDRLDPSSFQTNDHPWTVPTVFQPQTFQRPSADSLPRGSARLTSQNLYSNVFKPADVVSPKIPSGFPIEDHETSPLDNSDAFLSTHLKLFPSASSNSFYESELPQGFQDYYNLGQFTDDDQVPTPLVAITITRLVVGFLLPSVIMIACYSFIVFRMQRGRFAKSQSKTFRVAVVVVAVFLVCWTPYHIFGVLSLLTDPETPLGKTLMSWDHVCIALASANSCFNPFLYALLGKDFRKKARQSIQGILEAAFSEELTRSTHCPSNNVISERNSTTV", "UniProt P30542, sequence (whole entry, looked up)": "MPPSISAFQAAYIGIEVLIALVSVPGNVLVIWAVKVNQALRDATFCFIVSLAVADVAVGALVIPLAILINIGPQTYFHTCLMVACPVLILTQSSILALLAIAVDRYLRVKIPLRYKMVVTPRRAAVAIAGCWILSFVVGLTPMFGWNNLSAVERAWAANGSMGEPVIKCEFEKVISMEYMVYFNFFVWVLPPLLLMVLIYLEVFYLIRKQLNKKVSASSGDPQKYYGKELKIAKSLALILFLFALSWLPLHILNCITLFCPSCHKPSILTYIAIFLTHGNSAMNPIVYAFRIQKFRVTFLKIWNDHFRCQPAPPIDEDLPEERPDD", "UniProt P14867, sequence (whole entry, looked up)": "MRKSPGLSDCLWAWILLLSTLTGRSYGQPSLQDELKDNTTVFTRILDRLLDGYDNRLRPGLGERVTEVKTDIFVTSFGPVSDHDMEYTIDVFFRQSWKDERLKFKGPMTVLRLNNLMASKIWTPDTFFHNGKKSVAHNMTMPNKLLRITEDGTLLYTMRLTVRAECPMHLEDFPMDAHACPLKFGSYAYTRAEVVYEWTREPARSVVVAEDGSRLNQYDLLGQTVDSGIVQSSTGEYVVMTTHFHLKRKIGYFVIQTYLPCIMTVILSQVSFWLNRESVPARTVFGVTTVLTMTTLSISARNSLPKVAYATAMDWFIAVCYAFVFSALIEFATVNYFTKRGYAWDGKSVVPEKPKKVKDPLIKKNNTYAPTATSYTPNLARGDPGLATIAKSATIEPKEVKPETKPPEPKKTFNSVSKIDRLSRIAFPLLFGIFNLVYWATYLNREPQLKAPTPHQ", "UniProt P18507, sequence (whole entry, looked up)": "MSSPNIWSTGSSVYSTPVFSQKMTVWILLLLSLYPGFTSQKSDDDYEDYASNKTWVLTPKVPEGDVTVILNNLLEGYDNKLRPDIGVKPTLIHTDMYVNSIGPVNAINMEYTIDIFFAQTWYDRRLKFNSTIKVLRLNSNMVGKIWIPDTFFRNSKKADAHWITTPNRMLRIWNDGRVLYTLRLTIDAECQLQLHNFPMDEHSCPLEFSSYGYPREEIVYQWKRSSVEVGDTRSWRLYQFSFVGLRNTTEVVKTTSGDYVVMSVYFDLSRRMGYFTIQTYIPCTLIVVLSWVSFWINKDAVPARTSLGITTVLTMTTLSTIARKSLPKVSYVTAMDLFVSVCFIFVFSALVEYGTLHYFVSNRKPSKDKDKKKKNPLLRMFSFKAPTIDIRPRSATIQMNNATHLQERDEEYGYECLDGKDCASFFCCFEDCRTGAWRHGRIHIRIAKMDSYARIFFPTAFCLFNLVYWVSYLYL", "UniProt Q8BZP8, sequence (whole entry, looked up)": "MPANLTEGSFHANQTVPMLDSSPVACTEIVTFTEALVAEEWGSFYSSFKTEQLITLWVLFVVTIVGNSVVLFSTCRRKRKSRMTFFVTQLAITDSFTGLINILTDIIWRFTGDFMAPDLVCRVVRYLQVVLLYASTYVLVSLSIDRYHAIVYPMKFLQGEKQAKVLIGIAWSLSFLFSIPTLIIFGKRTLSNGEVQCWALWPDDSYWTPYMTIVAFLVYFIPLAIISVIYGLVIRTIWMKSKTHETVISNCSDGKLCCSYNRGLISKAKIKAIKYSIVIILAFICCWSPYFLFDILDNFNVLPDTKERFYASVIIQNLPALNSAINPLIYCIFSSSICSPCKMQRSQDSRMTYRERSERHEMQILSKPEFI", "UniProt P49685, sequence (whole entry, looked up)": "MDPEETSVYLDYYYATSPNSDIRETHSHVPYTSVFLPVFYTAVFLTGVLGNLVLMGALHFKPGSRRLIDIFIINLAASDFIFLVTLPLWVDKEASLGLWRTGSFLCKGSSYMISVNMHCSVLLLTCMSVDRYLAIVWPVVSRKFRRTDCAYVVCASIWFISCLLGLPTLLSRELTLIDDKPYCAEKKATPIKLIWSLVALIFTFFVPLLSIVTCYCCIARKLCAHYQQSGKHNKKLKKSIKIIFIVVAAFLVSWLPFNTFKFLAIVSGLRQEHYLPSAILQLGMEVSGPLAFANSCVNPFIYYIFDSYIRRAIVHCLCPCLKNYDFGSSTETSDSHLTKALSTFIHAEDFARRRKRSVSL", "UniProt Q92731, sequence (whole entry, looked up)": "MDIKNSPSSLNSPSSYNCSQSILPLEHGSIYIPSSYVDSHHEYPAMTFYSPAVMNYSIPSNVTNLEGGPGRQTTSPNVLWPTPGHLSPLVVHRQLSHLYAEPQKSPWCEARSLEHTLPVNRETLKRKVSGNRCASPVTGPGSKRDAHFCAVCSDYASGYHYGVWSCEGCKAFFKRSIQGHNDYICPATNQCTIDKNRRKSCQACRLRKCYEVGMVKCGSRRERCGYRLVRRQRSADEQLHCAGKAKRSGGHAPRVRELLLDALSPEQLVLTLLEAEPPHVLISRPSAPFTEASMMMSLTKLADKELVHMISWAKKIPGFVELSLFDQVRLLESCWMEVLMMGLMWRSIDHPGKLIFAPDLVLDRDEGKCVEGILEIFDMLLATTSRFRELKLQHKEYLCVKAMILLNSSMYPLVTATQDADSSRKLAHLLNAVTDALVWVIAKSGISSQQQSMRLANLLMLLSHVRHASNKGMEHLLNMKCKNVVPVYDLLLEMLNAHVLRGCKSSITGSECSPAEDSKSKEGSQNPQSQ", "UniProt O14764, sequence (whole entry, looked up)": "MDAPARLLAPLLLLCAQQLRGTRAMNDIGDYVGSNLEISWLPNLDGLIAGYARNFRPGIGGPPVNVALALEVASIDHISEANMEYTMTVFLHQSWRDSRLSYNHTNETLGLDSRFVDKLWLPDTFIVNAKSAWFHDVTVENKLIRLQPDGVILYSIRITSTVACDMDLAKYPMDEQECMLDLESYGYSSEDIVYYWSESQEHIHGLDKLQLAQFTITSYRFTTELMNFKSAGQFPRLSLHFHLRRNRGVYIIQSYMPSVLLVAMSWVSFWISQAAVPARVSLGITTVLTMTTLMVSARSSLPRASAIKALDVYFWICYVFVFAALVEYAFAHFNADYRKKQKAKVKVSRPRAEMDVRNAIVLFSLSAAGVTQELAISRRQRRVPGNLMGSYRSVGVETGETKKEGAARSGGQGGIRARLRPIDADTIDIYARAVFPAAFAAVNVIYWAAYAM", "UniProt Q9NYW4, sequence (whole entry, looked up)": "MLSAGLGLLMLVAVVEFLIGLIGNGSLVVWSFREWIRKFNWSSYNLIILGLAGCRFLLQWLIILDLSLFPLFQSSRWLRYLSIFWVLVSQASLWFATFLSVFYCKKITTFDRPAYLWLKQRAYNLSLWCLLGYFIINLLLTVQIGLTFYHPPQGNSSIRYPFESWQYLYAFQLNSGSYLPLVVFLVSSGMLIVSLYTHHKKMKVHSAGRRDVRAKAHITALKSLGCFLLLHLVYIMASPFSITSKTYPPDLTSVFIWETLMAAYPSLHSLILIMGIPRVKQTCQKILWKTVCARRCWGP"}
{"Compound": "N=C(N)NCCC[C@H](NC(=O)[C@H](Cc1ccccc1)NC(=O)[C@@H](N)CO)C(=O)N[C@@H](CC(N)=O)C(=O)NCC(N)=O", "target": "Neuropeptide S receptor (Mus musculus, UniProt Q8BZP8)", "test": "calcium signal, agonist", "EC50": "1010 nM"}
{"Compound": "CC(C)C[C@H](NC(=O)CNC(=O)[C@H](CC(C)C)NC(=O)[C@H](CCCCN)NC(=O)[C@H](CO)NC(=O)[C@H](C)NC(=O)[C@H](CCCN=C(N)N)NC(=O)[C@H](Cc1ccc(O)cc1)NC(=O)[C@H](CCCCN)NC(=O)[C@H](CCCCN)NC(=O)CNC(=O)[C@H](Cc1c[nH]c2ccccc12)NC(=O)[C@@H](N)Cc1c[nH]c2ccccc12)C(=O)N[C@@H](C)C(=O)N[C@@H](CCCN=C(N)N)C(=O)O", "target": "C3AR1", "test": "β-arrestin1 recruitment, agonist, BRET", "conditions": "together with: GRK2 co-expression", "EC50": "5.4 nM"}
{"Compound": "Cc1cc(N/C=C(\\C(=O)NC2CCC2)C(=O)c2ccc(Cl)cc2Cl)no1", "target": "GABA A receptor alpha-2/beta-2/gamma-2 (Homo sapiens, UniProt P18507+P47869+P47870)", "test": "GABA current potentiation, positive modulator, two-electrode voltage clamp", "test system": "Xenopus laevis oocytes", "conditions": "30 s preincubation, together with: GABA EC10", "EC50": "18 ± 8 nM"}
{"Compound": "COCCOc1ccc2cc1S(=O)(=O)NCCCNc1nc(ncc1-c1ccc(F)c(OC)c1)N2", "target": "Vascular endothelial growth factor receptor 1 (FLT1, Homo sapiens, UniProt P17948)", "test": "target engagement in cells, BRET", "EC50": "23000 nM"}
{"Compound": "CCNC(=O)[C@H]1O[C@@H](n2cnc3c(NCCCNC(=O)CCCCCNC(=O)COc4ccc(/C=C/C5=[N+]6C(=Cc7ccc(-c8cccs8)n7[B-]6(F)F)C=C5)cc4)ncnc32)[C@H](O)[C@@H]1O", "target": "ADORA1", "test": "CRE-SPAP reporter gene, agonist", "test system": "CHO-A1", "conditions": "Gs enhancement, together with: forskolin, pertussis toxin 100 ng/mL overnight", "EC50": "240 nM"}
{"Compound": "O=S(=O)(Oc1cccc(Cl)c1)C1CC2OC1C(c1ccc(O)cc1)=C2c1ccc(O)cc1 (racemic)", "target": "ESR1", "test": "reporter gene, agonist, luciferase", "EC50": "210 nM"}
{"Compound": "COc1cc(/C=C2\\Cc3ccccc3C2=O)ccc1O", "target": "ESR1", "test": "coactivator recruitment, agonist", "EC50": "2360 nM"}
{"Compound": "CC1(C)O[C@@H]2[C@H](O1)[C@H]1COP(=O)([O-])OP(=O)(O)OC[C@H]3O[C@H]([C@H](O)[C@@H]3O)[n+]3cnc4c(ncn4[C@@H]2O1)c3N", "target": "cADPR receptor, sea urchin", "test": "Ca2+ release, agonist", "test system": "sea urchin egg homogenate", "EC50": "12000 nM"}
{"Compound": "COc1ccc(C(=O)Nc2c(-c3cccs3)nc3ccccn23)cc1", "target": "Gamma-aminobutyric acid receptor subunit alpha-1/beta-2/delta (Homo sapiens, UniProt O14764+P14867+P47870)", "test": "positive allosteric modulator, FLIPR membrane potential", "test system": "HEK293 Flp-In", "conditions": "together with: GABA EC20", "EC50": "3680 nM"}
{"Compound": "CC(C)C[C@@H]1NC(=O)[C@H](CCCNC(=N)N)NC(=O)[C@H](C(C)C)NC(=O)[C@H](Cc2c[nH]cn2)NC(=O)[C@H](Cc2c[nH]cn2)NC(=O)CNC(=O)[C@H](CCCCN)NC(=O)[C@H](CC(C)C)NC(=O)[C@H](CC(N)=O)NC(=O)[C@H]([C@@H](C)O)NC(=O)[C@H](CO)NC(=O)[C@H](CC(N)=O)NC(=O)[C@@H]2CCCN2C(=O)[C@H](CO)NC(=O)[C@@H]2CCCN2C(=O)[C@H](C(C)C)NC(=O)[C@H](CCCNC(=N)N)NC(=O)[C@H](Cc2c[nH]cn2)NC(=O)[C@@H]2CSSC[C@H](NC1=O)C(=O)N[C@@H](CCCCN)C(=O)N1CCC[C@H]1C(=O)N[C@H](C(=O)N[C@@H](CCCCN)C(=O)N[C@@H](CC(C)C)C(=O)N[C@@H](CCC(=O)O)C(=O)N1CCC[C@H]1C(=O)N[C@@H](CCC(=O)O)C(=O)N1CCC[C@H]1C(=O)N[C@@H](CCCNC(=N)N)C(=O)N[C@@H](CC(C)C)C(=O)N[C@@H](Cc1c[nH]c3ccccc13)C(=O)N[C@H](C(=O)N[C@H](C(=O)N1CCC[C@H]1C(=O)NCC(=O)N[C@@H](C)C(=O)N[C@@H](CC(C)C)C(=O)N1CCC[C@H]1C(=O)N[C@@H](CCC(N)=O)C(=O)N[C@H](C(=O)O)C(C)C)C(C)C)C(C)C)CSSC[C@H](NC(=O)[C@H](CC(C)C)NC(=O)[C@H](CCCNC(=N)N)NC(=O)[C@@H](NC(=O)[C@H](CCCNC(=N)N)NC(=O)[C@H](CCCNC(=N)N)NC(=O)CNC(=O)[C@H](CO)NC(=O)[C@H](Cc1c[nH]c3ccccc13)NC(=O)[C@H](C)NC(=O)[C@H](CCCCN)NC(=O)[C@H](C)NC(=O)[C@@H]1CCCN1C(=O)[C@H](CCCNC(=N)N)NC(=O)[C@H](CCCNC(=N)N)NC(=O)[C@@H](N)CCCCN)[C@@H](C)O)C(=O)N2", "target": "G-protein coupled receptor 15, with GoA (Homo sapiens, UniProt P49685)", "test": "GoA activation, agonist, BRET", "test system": "HEK293A transfected GPR15", "EC50": "52.5 nM"}
{"Compound": "O=C1C(=O)c2cccnc2-c2ncccc21", "target": "Taste receptor type 2 member 5 (TAS2R5, Homo sapiens, UniProt Q9NYW4)", "test": "calcium signal, agonist, fluorescence", "EC50": "540 nM"}
{"Compound": "CSCC[C@H](NC(=O)CNC(=O)[C@H](CCCCN)NC(=O)[C@@H](N)Cc1c[nH]c2ccccc12)C(=O)N[C@H](C(=O)N[C@H](CCSC)C(N)=O)C(C)C", "target": "fMet-Leu-Phe receptor (FPR1, Homo sapiens, UniProt P21462)", "test": "binding, flow cytometry competition", "test system": "U-937", "conditions": "4 °C, together with: 5 nM WK(FL)YMVm probe", "EC50": "no binding"}
{"Compound": "CC(C)C[C@H](NC(=O)[C@@H](N)[C@@H](C)O)C(=O)N[C@@H](CCC(N)=O)C(=O)N1CCC[C@H]1C(=O)N1CCC[C@H]1C(=O)N[C@@H](C)C(=O)N[C@@H](CO)C(=O)N[C@@H](CO)C(=O)N[C@@H](CCCNC(=N)N)C(=O)N[C@@H](CCCNC(=N)N)C(=O)N[C@@H](CCCNC(=N)N)C(=O)N[C@@H](Cc1c[nH]cn1)C(=O)N[C@@H](Cc1ccccc1)C(=O)N[C@@H](Cc1c[nH]cn1)C(=O)N[C@@H](Cc1c[nH]cn1)C(=O)N[C@@H](C)C(=O)N[C@@H](CC(C)C)C(=O)N1CCC[C@H]1C(=O)N1CCC[C@H]1C(=O)N[C@@H](C)C(=O)N[C@@H](CCCNC(=N)N)C(=O)O", "target": "C3AR1", "test": "receptor internalization, agonist, ELISA surface expression", "test system": "HEK293T, β-arrestin2, GRK2 co-expressed", "conditions": "60 min, 37 °C", "EC50": "416 nM"}
{"Compound": "COc1ccc(C(=O)[C@H](C)OC(=O)c2cccc(O)c2)cc1", "target": "Estrogen receptor beta (ESR2, Homo sapiens, UniProt Q92731)", "test": "coactivator recruitment, agonist", "EC50": "3490 nM"}
{"Compound": "CCCn1c(=O)c2[nH]c(-c3ccc(OCC(=O)NCCNC(=O)CCCCCNS(=O)(=O)c4ccc(C5=c6cc7c8c(c6Oc6c5cc5c9c6CCCN9CCC5)CCC[N+]=8CCC7)c(S(=O)(=O)[O-])c4)cc3)nc2n(CCC)c1=O", "target": "ADORA1", "test": "reporter gene, agonist", "EC50": "1510 nM"}
{"Compound": "CC/C(=C(\\c1ccccc1)c1ccc(OCCN(C)CCCCCC(=O)NCCc2c[nH]c3ccc(OC)cc23)cc1)c1ccccc1", "target": "Melatonin receptor type 1A (MTNR1A, Homo sapiens, UniProt P48039)", "test": "phosphorylation in cells, agonist, AlphaScreen", "EC50": "807 nM"}
{"Compound": "N=C(N)NCCC[C@H](NC(=O)[C@H](CC(=O)O)NC(=O)[C@@H]1CSCC(=O)NCC(=O)N[C@@H](Cc2c[nH]cn2)C(=O)N[C@H](Cc2ccccc2)C(=O)N[C@@H](CCCNC(=N)N)C(=O)N[C@@H](Cc2c[nH]c3ccccc23)C(=O)N1)C(=O)N[C@@H](Cc1ccccc1)C(=O)NCC(N)=O", "target": "Melanocyte-stimulating hormone receptor (MC1R, Homo sapiens, UniProt Q01726)", "test": "cAMP, agonist", "EC50": "> 1000 nM"}
{"note": "For quick reference, copied from above:"}
{"Compound": "O=S(=O)(Oc1cccc(Cl)c1)C1CC2OC1C(c1ccc(O)cc1)=C2c1ccc(O)cc1 (racemic)", "target": "ESR1", "test": "reporter gene, agonist, luciferase", "EC50": "210 nM"}
{"Compound": "COc1cc(/C=C2\\Cc3ccccc3C2=O)ccc1O", "target": "ESR1", "test": "coactivator recruitment, agonist", "EC50": "2360 nM"}
{"Compound": "CC1(C)O[C@@H]2[C@H](O1)[C@H]1COP(=O)([O-])OP(=O)(O)OC[C@H]3O[C@H]([C@H](O)[C@@H]3O)[n+]3cnc4c(ncn4[C@@H]2O1)c3N", "target": "cADPR receptor, sea urchin", "test": "Ca2+ release, agonist", "test system": "sea urchin egg homogenate", "EC50": "12000 nM"}
